# Results gathered from unrelated publications.
# Every numbered part comes from another study and shows a few of its results, in no order.

# Study 1
# Target: TAR DNA-binding protein 43, full length, His tag (TARDBP, Homo sapiens, UniProt Q13148, residues 1-414)
# Method: RNA Bind-n-Seq
# Form: RNA
# Sample: in vitro
# Tested at: 20 nM
# Setting: 6-mer, flanks averaged, single round
# Added: 150 mM KCl
# Baseline: input library
# Reading: higher = stronger binding
Sequence,6-mer enrichment (R)
CUGUAC,0.637
UGCCAA,0.692
ACCGAU,0.622
AUAGUG,0.932
GCACGG,1.95
GUGACG,1.5
UCGAAA,0.612
CGCACG,0.956

# Study 2
# Target: Serine/threonine-protein kinase N2 (PKN2, Homo sapiens, UniProt Q16513)
# UniProt Q16513, sequence (whole entry, looked up): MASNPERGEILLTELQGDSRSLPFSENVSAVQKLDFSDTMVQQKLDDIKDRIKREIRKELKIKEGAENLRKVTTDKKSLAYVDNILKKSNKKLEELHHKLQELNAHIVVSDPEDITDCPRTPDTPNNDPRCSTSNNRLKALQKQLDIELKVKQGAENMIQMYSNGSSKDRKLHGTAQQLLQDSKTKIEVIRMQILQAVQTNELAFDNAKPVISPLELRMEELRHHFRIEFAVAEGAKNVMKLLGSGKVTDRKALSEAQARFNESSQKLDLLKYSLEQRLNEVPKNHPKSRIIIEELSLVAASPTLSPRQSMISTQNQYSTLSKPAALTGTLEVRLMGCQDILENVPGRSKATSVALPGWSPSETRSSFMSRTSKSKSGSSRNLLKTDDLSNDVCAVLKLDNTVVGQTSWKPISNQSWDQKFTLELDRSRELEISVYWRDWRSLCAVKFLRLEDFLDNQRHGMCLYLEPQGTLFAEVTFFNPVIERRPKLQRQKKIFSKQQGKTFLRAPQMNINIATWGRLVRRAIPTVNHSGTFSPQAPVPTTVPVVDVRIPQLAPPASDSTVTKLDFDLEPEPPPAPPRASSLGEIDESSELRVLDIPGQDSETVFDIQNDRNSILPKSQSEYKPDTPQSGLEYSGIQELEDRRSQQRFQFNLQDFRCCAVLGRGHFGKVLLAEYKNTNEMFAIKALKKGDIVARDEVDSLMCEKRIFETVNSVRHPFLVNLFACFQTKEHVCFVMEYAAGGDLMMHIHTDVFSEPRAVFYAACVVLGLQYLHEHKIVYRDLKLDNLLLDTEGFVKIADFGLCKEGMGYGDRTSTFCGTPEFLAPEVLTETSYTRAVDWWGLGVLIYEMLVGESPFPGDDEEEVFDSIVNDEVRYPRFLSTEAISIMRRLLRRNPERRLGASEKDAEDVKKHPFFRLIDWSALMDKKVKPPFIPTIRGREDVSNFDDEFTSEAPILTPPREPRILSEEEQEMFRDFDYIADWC
# Observed: enzyme activity
# Mode: inhibitor
# Tested at: 0.5 µM
# Baseline: control
SMILES,remaining activity [%]
O=C(CCCc1ccc(-c2ccccc2F)cc1)Nc1ccc(O)cc1,89.8
CC(C)[C@H](CO)Nc1nc(Nc2cc(N)cc(Cl)c2)c2ncn(C(C)C)c2n1,98
O=C1NC(=O)C(c2cn(CCCn3ccnc3)c3ccccc23)=C1Nc1ccccc1,76.9
OCC(O)CCON=C1C(c2c(O)[nH]c3ccccc23)=Nc2ccccc21 (stereo not shown),90.1
O=C(Nc1cccc(Nc2cc(Nc3cccc(C(F)(F)F)c3)ncn2)c1)C1CC1,95.9
COc1ccc(OC)c2c(=S)c3ccccc3[nH]c12,105
Cc1nc(-c2ccccc2)c(-c2ccncc2)o1,93.4
COc1cc2nccc(Oc3ccc(NC(=S)NC(=O)c4ccccc4C)cc3)c2cc1OC,109
COc1ccc(C(=O)Nc2sc3c(c2C(N)=O)CCCC3)cc1OC,98.5
Nc1[nH]nc2nc3ccccc3nc12,98.7
Oc1ccc(-c2nc(-c3ccncc3)c(-c3ccc(F)cc3)[nH]2)cc1,101
NCCNc1ncc(C(N)=O)c(Nc2cccc(C(F)(F)F)c2)n1,89.7
Cn1sc(=O)n(Cc2ccccc2)c1=O,97.2
COc1cc2ncnc(Nc3ccc(F)c(Cl)c3)c2cc1OCCCN1CCOCC1,93.1
CCOC(=O)c1c(C)[nH]c(/C=C2\C(=O)Nc3ccccc32)c1C,92

# Study 3
# Target: 5-hydroxytryptamine receptor 1B (HTR1B, Homo sapiens, UniProt P28222)
# UniProt P28222, sequence (whole entry, looked up): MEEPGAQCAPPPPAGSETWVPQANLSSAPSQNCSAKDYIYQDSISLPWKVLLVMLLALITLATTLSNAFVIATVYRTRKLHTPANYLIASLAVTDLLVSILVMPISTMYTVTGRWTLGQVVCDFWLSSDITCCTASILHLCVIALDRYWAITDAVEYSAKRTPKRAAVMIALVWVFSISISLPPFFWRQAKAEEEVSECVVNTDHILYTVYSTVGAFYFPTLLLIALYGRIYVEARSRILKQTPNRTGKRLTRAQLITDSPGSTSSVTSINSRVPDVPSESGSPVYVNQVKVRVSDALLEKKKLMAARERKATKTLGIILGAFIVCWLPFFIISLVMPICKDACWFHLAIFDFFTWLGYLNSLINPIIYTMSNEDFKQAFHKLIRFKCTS
# Observed: ligand displacement
# Method: radioligand
# Tested at: 10 µM
SMILES,inhibition [%]
CN1CCN(c2cnc3c(C4CCN(C(=O)c5ccc(OC(F)(F)F)cc5N)CC4)ncnc3c2)CC1,14.9
O=C1CCc2cc(Nc3cc(OC4CCOCC4)c([N+](=O)[O-])cc3Cl)ccc2N1,14.3
Cn1nc(C(F)(F)F)cc1-c1cnc(N2CCc3cc(S(=O)(=O)Nc4c(F)cc(Cl)cc4F)cc(N4CCCC4=O)c32)nc1,9.13
Cc1cc(-n2nc(Cc3cc(F)cc(C(F)(F)F)c3)nc2C)ccc1C(N)=O,13.8
CC1=C(C#N)C(c2ccc3c(c2)c(NC(=O)c2ccccc2C)nn3C)C(C#N)=C(C)N1,4.12
CO[C@H]1CC[C@H](CNc2ccc(S(=O)(=O)NC(=O)c3ccc(N4CCN(CC5=C(c6ccc(Cl)cc6)CC(C)(C)CC5)CC4)cc3Oc3cnc4[nH]ccc4c3)cc2[N+](=O)[O-])CC1,6.23

# Study 4
# Target: Sal-like protein 4, full length isoform A (SALL4, Homo sapiens, UniProt Q9UJQ4, residues 1-1053)
# UniProt Q9UJQ4, sequence (whole entry, looked up): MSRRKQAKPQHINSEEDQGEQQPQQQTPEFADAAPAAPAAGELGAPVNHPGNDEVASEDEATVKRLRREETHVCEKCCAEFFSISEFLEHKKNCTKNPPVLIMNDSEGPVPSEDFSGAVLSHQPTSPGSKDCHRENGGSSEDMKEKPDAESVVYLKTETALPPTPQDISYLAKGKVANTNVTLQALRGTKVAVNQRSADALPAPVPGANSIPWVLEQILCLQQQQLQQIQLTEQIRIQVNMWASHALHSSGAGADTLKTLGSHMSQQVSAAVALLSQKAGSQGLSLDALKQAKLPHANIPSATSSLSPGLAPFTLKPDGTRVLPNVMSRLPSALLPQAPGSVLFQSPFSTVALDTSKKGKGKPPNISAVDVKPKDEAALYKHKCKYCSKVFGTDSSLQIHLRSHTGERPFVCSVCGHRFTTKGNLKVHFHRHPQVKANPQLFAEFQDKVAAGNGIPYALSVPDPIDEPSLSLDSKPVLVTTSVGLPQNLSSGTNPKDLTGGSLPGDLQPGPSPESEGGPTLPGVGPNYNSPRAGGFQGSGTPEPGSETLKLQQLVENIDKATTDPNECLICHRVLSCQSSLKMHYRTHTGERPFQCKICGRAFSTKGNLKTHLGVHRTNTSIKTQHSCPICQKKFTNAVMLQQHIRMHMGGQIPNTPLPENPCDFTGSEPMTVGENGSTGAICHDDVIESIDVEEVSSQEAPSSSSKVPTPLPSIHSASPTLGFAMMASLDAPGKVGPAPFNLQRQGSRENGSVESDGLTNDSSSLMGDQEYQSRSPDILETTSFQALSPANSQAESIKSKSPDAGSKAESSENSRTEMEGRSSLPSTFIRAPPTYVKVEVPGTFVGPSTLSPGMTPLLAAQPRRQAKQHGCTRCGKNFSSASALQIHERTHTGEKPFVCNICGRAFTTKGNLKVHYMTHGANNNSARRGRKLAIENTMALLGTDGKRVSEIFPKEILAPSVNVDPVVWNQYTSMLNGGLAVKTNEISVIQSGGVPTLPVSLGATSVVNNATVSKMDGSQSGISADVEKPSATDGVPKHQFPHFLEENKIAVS
# Method: universal PBM
# Form: double-stranded DNA, one strand shown
# Sample: in vitro
# Tested at: 600 nM
# Setting: 8-mer, flanks averaged, mean of replicates
# Reading: higher = stronger binding
Sequence,E-score
CGAGATTC,-0.152
TCGCTAGA,-0.0288
ATTAAGTA,0.25
CCTCGCGC,-0.253
AGGCGTAG,-0.147
GTTAACTA,0.211
ATTGGACC,-0.121
TGGAGGAA,0.00713
